# Published values gathered from unrelated publications.
# Every numbered part comes from another study and shows a few of its results, in no order. Substitutions count along the parent as printed.

# Block 1 — target: CEBPA, bZIP domain (human); technique: DHFR protein complementation; medium: yeast; relative to: wild-type JUN-FOS pair; direction: higher = stronger binding
# Setting: single substitutions, most at no-binding floor
# Starting sequence: JUN, bZIP domain (human); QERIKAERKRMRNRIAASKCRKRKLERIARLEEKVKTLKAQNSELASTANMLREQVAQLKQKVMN; partner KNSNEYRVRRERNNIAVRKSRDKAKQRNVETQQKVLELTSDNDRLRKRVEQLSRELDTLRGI
Change,binding fitness [natural log]
V35E,-1.51
S43E,-1.36
S43A,-1.33
L52C,-1.34
Q41V,-1.46
T48P,-1.51
A49N,-1.35
A49Y,-1.43
L52D,-1.52
E44I,-1.49
I28L,-1.42
V35G,-1.5
R53V,-1.43
T48F,-1.48
K34T,-1.36
L31E,-1.44

# Block 2 — target: CCNE1, cyclin fold, Cln2 fusion (human); technique: yeast growth competition, sequencing; medium: yeast; setting: strong parent motif; relative to: not given; direction: higher = stronger binding
# Starting sequence: CDKN1B docking peptide (human); PSACRNLFGPVDH; partner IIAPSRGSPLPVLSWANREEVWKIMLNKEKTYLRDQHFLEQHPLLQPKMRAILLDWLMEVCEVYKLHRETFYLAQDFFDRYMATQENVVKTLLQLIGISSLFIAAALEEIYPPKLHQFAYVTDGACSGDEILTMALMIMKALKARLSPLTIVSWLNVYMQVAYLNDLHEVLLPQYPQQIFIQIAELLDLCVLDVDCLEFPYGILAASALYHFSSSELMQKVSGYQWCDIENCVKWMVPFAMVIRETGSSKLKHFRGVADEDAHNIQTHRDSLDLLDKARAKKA
Change,normalised enrichment score
PDACRNLFGPVDH [S2D],1.89
PSACRRLFGPVDH [N6R],4.54
PSACRNLFYPVDH [G9Y],1.21
PSACRNLYGPVDH [F8Y],-0.0352
PSACHNLFGPVDH [R5H],0.276
PSACRNLFGPVDQ [H13Q],3.09
PIACRNLFGPVDH [S2I],1.41
PSACRNGFGPVDH [L7G],0.357
PSACRNLFGPLDH [V11L],2.72
PSPCRNLFGPVDH [A3P],1.4
PEACRNLFGPVDH [S2E],1.85
PSAPRNLFGPVDH [C4P],0.123
PSACRNLGGPVDH [F8G],-0.364
PSACRNKFGPVDH [L7K],0.31
PSACRNLFGPVIH [D12I],2.43
PSACRFLFGPVDH [N6F],0.592
PRACRNLFGPVDH [S2R],2.9
PSACNNLFGPVDH [R5N],0.319
PSACRNLFGPVKH [D12K],2.5
NSACRNLFGPVDH [P1N],4.16
PYACRNLFGPVDH [S2Y],1.02
PSACRNLFGPWDH [V11W],4.97
PSADRNLFGPVDH [C4D],0.385
PSACRNLSGPVDH [F8S],0.22
PSALRNLFGPVDH [C4L],1.14

# Block 3 — technique: protein-binding microarray; form: double-stranded DNA, one strand shown; medium: in vitro; concentration: 250 nM; setting: 60-bp whole probe; added: salmon DNA 0.4 mg/ml; relative to: random background probes; direction: higher = stronger binding; all sequences stand within: GCCTAGCAC … GTCTTGATTCGCTTGACGCTGCTG
# Target: Interferon regulatory factor 7, full length, phosphomimetic (IRF7, Homo sapiens, UniProt Q92985, residues 1-503, S101K/S471D/S472D/S475D/S476D/S477D/S483D/S484D/S487D)
# Target sequence (chain): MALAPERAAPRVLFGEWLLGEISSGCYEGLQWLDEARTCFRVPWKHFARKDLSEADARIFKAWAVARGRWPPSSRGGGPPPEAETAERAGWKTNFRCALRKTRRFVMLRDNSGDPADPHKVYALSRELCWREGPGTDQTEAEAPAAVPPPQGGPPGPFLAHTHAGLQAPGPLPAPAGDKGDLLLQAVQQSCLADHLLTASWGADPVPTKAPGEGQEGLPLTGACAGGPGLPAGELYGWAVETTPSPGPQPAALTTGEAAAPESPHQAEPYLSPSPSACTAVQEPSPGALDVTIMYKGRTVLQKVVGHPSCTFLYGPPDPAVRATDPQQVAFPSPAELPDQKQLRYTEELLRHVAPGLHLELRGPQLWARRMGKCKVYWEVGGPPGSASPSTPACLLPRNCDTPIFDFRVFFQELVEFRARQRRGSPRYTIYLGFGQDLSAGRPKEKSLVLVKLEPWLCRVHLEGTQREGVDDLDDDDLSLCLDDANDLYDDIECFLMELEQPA
Sequence,log fluorescence [z-score]
TTGGGTATCGACTATCGGTTAGTGCTA,0.301
GACGGTTTCGATTATCGGGACGTGCTA,10.3
CAAGTTTCTCCTTTCCAAATGTGCTAG,4.67
GACGGTTTACTTATCCTGACGTGCTAG,0.23
GACGGACTGGGTTTCGTGACGTGCTAG,0.868
GACGAACTGAGTTTTGAGACGTGCTAG,-0.0844
TCAAGGATGGTTTTCAGACTGTGCTAG,-0.686
CACGGTATCGGGTATCGGGACGTGCTA,0.621
TTAGGACTGGACTATCGGTTAGTGCTA,-0.0663
TTAGGAATCGACTATCGGTTAGTGCTA,-0.0488
TCACATGTGGGTTCCATACTGTGCTAG,0.159
TTAGGTTTCGGTATCCGTTAGTGCTAG,11.4
ATAGGTATCCTTCTCCTTTAGTGCTAG,0.366
TTACGACTGGACTATCGGTTAGTGCTA,-0.434
GACGGTATCCTTATCCTGACGTGCTAG,0.248
TCACTATTATATATATCACTGTGCTAG,0.346
CTAGGACTGGGGTATCGGTTAGTGCTA,0.56
GACGGTTTCGGACTTGGGACGTGCTAG,3.46
TCAGATATCAGTCTCGATTAGTGCTAG,1.76

# Block 4 — technique: RNA Bind-n-Seq; form: RNA; medium: in vitro; concentration: 200 nM; setting: whole 134-nt RNA, ends assumed; added: 150 mM KCl; relative to: input library; direction: higher = stronger binding
# Target: Fragile X messenger ribonucleoprotein 1, C-terminal low-complexity region (Fmr1, Mus musculus, UniProt P35922)
# All sequences stand within: GGGAGUUCUACAGUCCGACGAUC … UGGAAUUCUCGGGUGUCAAGG
Sequence,log2 enrichment
AAGUCCUGUGCUACACAUCGUAUGUACCGAAUCGGGUUUUGGGUUUUGGUUUUGGGAAAGUAUUAUGUUACGCCGUUCGGAUCUGCACUU,-0.277
UUUGUCCCUGCUCAGGAUGAGACUUCUGUGAGCAGCGAGGAUUUUGAUAUGAGCGACUCCACAUGGAUGUCAGCUGACCCGCACCUGGCC,-0.503
CAAGUCCUGUGCUACACAUCGUAUGUACCGAAUCGGGCCCGGCCCGGGGCCCGGGGAAAGUAUUAUGUUACGCCGUUCGGAUCUGCACUU,-0.626
ACCAUGCAGGUGGGCAUCUUUGGGAAGUGGGGCAAGGGGGGGAUAGGGAGGGGGGUAACACUAUGGGAACAGGUGGUCCCAGGUCGUUUC,0.64
CCUGUGCUACACAUCGUAUGUACCGAAUCGGGGUUUGGGGAAAAAAAGGGGUUUUUGGGGAAAGUAUUAUGUUACGCCGUUCGGAUCUGC,0.415
UCCUGUGCUACACAUCGUAUGUACCGAAUCAAACCCCCAAAUUUUUAAAUUUUUUUAAAAAAGUAUUAUGUUACGCCGUUCGGAUCUGCA,0.519
UAACUUUAGAGGAGGAUCUGAUGGAUAUGGCAGUGGACGUGGAUUUGGGGAUGACUAUAAUGGGUAUGGAGGAGGACCUGGAGGUGGCAA,0.413
UUUCUGUGUGCUUAGGUGCCCGAGCUACUGAGGGUCUAAGUCCGGGCAGCCGAAGAGUGUGGUAGGUAACGGUCCUCAGCGCAAGGGUCA,-0.414
UCAAGUCCUGUGCUACACAUCGUAUGUACCGAAUCGGGCCCGGGCCCGGCCCGGAAAGUAUUAUGUUACGCCGUUCGGAUCUGCACUUCC,-0.728

# Block 5 — technique: DHFR PCA, deep sequencing; medium: yeast; added: (+)-ABA 0 µM; relative to: wild-type fitted maximum; direction: higher = stronger binding
# Target: ABI1, truncated, D143A, DHFR fusion (Arabidopsis thaliana)
# Setting: methotrexate growth selection, single substitutions
# Starting sequence: PYL1, truncated, DHFR fusion (Arabidopsis thaliana); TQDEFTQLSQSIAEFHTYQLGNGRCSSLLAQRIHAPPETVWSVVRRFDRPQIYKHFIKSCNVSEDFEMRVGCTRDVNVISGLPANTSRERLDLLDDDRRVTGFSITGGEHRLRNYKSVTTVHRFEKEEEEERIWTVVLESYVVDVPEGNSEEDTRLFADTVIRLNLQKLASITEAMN
Change,relative binding score [%]
A30D,3.9
T120P,0.11
T1G,18.2
N114G,8.23
V161H,37.5
E125G,30.5
N22C,9.48
I105K,5.31
F66G,14.6
G21K,24.2
R32V,48.3
A35T,-0.373
K58R,19.5
E109R,-3.01
S171Q,48

# A few entries again (block 4):
Sequence,log2 enrichment
ACCAUGCAGGUGGGCAUCUUUGGGAAGUGGGGCAAGGGGGGGAUAGGGAGGGGGGUAACACUAUGGGAACAGGUGGUCCCAGGUCGUUUC,0.64
CCUGUGCUACACAUCGUAUGUACCGAAUCGGGGUUUGGGGAAAAAAAGGGGUUUUUGGGGAAAGUAUUAUGUUACGCCGUUCGGAUCUGC,0.415
AAGUCCUGUGCUACACAUCGUAUGUACCGAAUCGGGUUUUGGGUUUUGGUUUUGGGAAAGUAUUAUGUUACGCCGUUCGGAUCUGCACUU,-0.277
CAAGUCCUGUGCUACACAUCGUAUGUACCGAAUCGGGCCCGGCCCGGGGCCCGGGGAAAGUAUUAUGUUACGCCGUUCGGAUCUGCACUU,-0.626
UAACUUUAGAGGAGGAUCUGAUGGAUAUGGCAGUGGACGUGGAUUUGGGGAUGACUAUAAUGGGUAUGGAGGAGGACCUGGAGGUGGCAA,0.413
UUUGUCCCUGCUCAGGAUGAGACUUCUGUGAGCAGCGAGGAUUUUGAUAUGAGCGACUCCACAUGGAUGUCAGCUGACCCGCACCUGGCC,-0.503
